Measurements collected from several papers.
Every numbered part comes from another study and shows a few of its results, in no order. Changes are numbered by the printed parent chain.

Sample 1
Target: inorganic phosphate, free oxyanion
Method: microfluidic competitive inhibition
Sample: in vitro, cell-free expressed
Concentration: not given
Notes: derived from inhibition constants, unchanged parent 615000 nM
Direction: lower = stronger binding
Starting sequence: PafA, mature enzyme, eGFP fusion (Elizabethkingia meningoseptica, UniProt Q9KJX5); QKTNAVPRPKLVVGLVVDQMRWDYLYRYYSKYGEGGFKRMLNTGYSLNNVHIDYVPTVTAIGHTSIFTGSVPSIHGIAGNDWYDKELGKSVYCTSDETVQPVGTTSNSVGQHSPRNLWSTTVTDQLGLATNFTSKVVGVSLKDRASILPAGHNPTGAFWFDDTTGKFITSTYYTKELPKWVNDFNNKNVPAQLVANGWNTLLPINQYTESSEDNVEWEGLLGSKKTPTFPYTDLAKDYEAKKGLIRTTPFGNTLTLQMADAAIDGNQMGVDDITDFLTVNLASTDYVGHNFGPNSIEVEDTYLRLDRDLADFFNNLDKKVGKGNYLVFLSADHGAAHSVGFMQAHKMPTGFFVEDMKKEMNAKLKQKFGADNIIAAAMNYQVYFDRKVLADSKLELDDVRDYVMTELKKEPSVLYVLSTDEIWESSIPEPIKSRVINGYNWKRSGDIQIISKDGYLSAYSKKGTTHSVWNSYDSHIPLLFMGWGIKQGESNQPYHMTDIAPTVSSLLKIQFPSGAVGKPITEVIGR
| Substitution | phosphate dissociation constant [µM] |
| --- | --- |
| T133V | 668 |
| V55A | 550 |
| T274V | 684 |
| A376G | 485 |
| D332G | 23.1 |
| K357G | 606 |

Sample 2
Target: Prothrombin, mature alpha-thrombin (F2, Homo sapiens, UniProt P00734)
Method: aptamer microarray, sandwich
Molecule type: DNA with 2'F-ANA
Sample: in vitro
Concentration: 200 nM
Notes: whole 15-mer aptamer, many near background
Added: Cy3 exosite-II aptamer, 400 nM
Direction: higher = stronger binding
Strand: GGTTGGTGTGGTTGG
| Modification | mean fluorescence intensity [a.u.] |
| --- | --- |
| 2'F-ANA at 5 8 11 12 13 15 | 96 |
| 2'F-ANA at 1 2 4 5 7 10 11 13 14 | 51 |
| 2'F-ANA at 1 2 3 4 5 7 8 9 10 11 12 13 | 49.7 |
| 2'F-ANA at 1 3 4 5 7 8 9 10 11 12 13 14 15 | 50.5 |
| 2'F-ANA at 1 3 4 5 7 8 9 10 12 15 | 52.9 |
| 2'F-ANA at 1 5 6 8 12 13 15 | 82.1 |
| 2'F-ANA at 2 4 5 8 11 | 60.9 |
| 2'F-ANA at 1 6 10 12 14 15 | 50 |

Sample 3
Target: CCNE1, cyclin fold, Cln2 fusion (human)
Method: yeast growth competition, sequencing
Sample: yeast
Notes: strong parent motif
Reference: not given
Direction: higher = stronger binding
Starting sequence: viral docking peptide; TSVRRALFTGGSD; partner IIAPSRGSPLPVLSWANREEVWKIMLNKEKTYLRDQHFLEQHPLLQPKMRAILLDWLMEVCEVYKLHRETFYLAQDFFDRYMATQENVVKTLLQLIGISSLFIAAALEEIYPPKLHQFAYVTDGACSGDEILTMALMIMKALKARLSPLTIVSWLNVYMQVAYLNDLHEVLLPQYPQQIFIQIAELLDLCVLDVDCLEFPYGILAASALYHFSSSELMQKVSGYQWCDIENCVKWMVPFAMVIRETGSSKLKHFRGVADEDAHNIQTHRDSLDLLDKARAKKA
| Substitution | normalised enrichment score |
| --- | --- |
| V3L | 0.704 |
| L7Q | 0.0582 |
| G10I | 5.19 |
| T9G | 5.07 |
| A6Q | 7.39 |
| G10N | 6.04 |
| G11M | 5.04 |
| F8K | -0.147 |
| A6Y | 0.525 |
| F8G | -0.00362 |
| S2H | 5.73 |
| G11P | 6.14 |
| F8P | 0.0119 |
| R4K | 5.45 |
| F8L | 0.704 |
| L7R | 0.298 |
| R4H | 0.236 |
| A6C | 5.28 |
| R5A L7A | -0.176 |
| V3M | 0.549 |
| T9K | 4.54 |
| G10P | 5.24 |
| T1A | 6.04 |
| A6D | 1.05 |
| F8Q | 0.154 |

Sample 4
Target: UDP-N-acetylglucosamine--peptide N-acetylglucosaminyltransferase 110 kDa subunit (OGT, Homo sapiens, UniProt O15294)
Observed: phage display binding
Method: phage display panning NGS
Molecule type: peptide
Notes: panning round 3
Reference: OGT-panned over input library
Construct (O15294 1-1046): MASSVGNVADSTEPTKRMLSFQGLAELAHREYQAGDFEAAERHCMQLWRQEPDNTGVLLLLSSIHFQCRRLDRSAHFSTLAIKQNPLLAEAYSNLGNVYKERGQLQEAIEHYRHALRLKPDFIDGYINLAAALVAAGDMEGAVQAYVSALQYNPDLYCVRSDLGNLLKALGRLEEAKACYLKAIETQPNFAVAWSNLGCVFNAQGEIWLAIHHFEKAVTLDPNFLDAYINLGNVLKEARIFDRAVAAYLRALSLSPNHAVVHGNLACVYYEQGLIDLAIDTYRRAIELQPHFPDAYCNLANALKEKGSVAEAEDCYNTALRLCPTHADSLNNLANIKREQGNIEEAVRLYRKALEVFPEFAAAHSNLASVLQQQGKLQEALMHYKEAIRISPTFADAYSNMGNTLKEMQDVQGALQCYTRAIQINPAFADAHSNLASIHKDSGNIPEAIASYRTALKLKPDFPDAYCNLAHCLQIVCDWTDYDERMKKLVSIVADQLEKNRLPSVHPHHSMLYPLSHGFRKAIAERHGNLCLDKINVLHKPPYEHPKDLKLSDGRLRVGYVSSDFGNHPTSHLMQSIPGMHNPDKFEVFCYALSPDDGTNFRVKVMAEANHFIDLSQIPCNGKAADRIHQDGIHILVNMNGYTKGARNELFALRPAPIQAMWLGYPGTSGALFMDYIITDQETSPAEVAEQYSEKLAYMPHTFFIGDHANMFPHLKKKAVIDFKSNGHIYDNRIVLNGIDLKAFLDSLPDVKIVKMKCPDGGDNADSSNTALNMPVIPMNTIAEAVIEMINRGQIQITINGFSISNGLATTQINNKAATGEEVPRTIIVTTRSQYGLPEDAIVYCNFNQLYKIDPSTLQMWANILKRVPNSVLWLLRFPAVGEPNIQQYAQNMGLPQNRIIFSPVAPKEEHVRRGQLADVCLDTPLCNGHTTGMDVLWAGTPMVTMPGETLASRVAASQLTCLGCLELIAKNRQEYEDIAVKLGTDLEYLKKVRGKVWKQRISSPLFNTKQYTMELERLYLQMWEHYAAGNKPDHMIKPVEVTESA
| Molecule | fold enrichment |
| --- | --- |
| RYYEPVYQIVATNSN | 1.52 |
| MWFPPVYSIQYDLI | 3.38 |
| SYFPVYQIQSFYPVT | 4.03 |
| NNNIYWPKYQITNTL | 2.1 |
| DFLYMPKYQMVFDFT | 3.8 |
| ASQYDFMPAYRIDVG | 2.31 |
| NFLPQYQITAGAYET | 4.17 |

Sample 5
Target: Histone acetyltransferase KAT6A, both winged helices, GST fusion (KAT6A, Homo sapiens, UniProt Q92794, residues 1-181)
Method: protein binding microarray
Molecule type: double-stranded DNA, one strand shown
Sample: in vitro
Concentration: not given
Notes: 8-mer, flanks averaged, mean of 2 arrays, mostly near background
Reference: not given
Direction: higher = stronger binding
Residues (chain): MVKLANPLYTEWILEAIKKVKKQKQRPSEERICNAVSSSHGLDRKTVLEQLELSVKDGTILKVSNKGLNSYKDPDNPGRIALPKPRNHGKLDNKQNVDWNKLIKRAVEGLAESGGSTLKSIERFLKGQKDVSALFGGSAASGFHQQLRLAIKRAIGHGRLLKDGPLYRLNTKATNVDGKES
| Strand | E-score |
| --- | --- |
| AGCGTAGA | 0.0476 |
| AACGATTC | 0.0491 |
| ACAACGGG | 0.0248 |
| CGTCCTGC | -0.0168 |
| AATTTTCA | -0.137 |
| GGGTGCTA | -0.105 |
| ATGTTGAG | 0.111 |
| ATTGCCAC | -0.0767 |

For quick reference, copied from above (sample 1):
| Substitution | phosphate dissociation constant [µM] |
| --- | --- |
| T133V | 668 |
| K357G | 606 |
| V55A | 550 |
| D332G | 23.1 |
